Results from different studies.
Every numbered part comes from another study and shows a few of its results, in no order. Positions count from the first letter of the parent shown.

Block 1
Target: CREM, bZIP domain (human)
Technique: DHFR protein complementation
Matrix: yeast
Notes: single substitutions, most at no-binding floor
Reference: wild-type JUN-FOS pair
Reading: higher = stronger binding
Measurement: binding fitness
Starting sequence: JUN, bZIP domain (human); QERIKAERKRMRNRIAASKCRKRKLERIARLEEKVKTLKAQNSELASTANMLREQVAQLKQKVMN; partner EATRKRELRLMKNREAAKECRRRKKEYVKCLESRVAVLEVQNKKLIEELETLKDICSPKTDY
A46P: -1.47 natural log
L31V: -1.6 natural log
K36M: -1.35 natural log
L45T: -1.53 natural log
T48I: -1.28 natural log
A57S: -1.4 natural log
N42C: -1.57 natural log
A49G: -1.58 natural log
A29E: -1.47 natural log
L38A: -1.56 natural log
Q55S: -1.39 natural log
E54A: -1.45 natural log
L45A: -1.58 natural log
L31D: -1.26 natural log
L38C: -1.58 natural log
K39G: -1.42 natural log
E33D: -1.49 natural log
Q58P: -1.53 natural log
Q41G: -1.56 natural log
T48H: -1.37 natural log
L45S: -1.53 natural log
S47N: -1.42 natural log
E33R: -1.45 natural log
K39F: -1.51 natural log
A46Y: -1.31 natural log

Block 2
Target: RING finger protein unkempt homolog, zinc fingers 1-6, GST-SBP tag (UNK, Homo sapiens, UniProt Q9C0B0, residues 30-357)
Chain of UniProt Q9C0B0 (30-357, looked up): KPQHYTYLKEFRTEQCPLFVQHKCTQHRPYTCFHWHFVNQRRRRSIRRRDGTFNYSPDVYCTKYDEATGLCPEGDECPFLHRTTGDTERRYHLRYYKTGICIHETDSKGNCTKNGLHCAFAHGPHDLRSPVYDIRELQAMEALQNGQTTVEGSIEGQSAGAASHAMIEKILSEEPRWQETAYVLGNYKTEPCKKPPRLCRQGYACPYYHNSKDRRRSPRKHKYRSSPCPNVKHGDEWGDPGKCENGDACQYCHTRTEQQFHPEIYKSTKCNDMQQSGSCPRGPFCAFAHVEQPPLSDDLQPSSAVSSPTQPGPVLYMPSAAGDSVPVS
Technique: RNA Bind-n-Seq
Molecule type: RNA
Matrix: in vitro
Tested at: not given
Notes: RNA with constant flanks, human and mouse sites, ends assumed
Reference: input RNA pool
Reading: higher = stronger binding
Measurement: bound/input enrichment
Constant ends, left off below: GGGAGUUCUACAGUCCGACGAUC … CAACAGAGGAUUGAGCAUCA
AGGAAGCAGCAGUUUUGUUGGCAUGUCAAGCUCCAGUUUCCUCAGAGUCAAGCAGAGUACAUAGAAAAAAGAGUACCAGAUGAUAAAACUAUUAAUGAAAUUCUAAAGCCUUACAUCGAU: 1.07 ratio
UGUUACCAAAAUCACUCUAGAGUCUUUUCUCGCGUGGAAGAAGAGGAAAAGACAAGAAAAGAUUGAUAAACUUGAACAAGAUAUGGAGAGGCGGAAAGCUGACUUCAAAGCAGGGAAAGC: 0.343 ratio
AUGGCCCAUGUGCUCUGUAACAGAGCCAGACUGGUUUCCUAUCUCCCAGGAUUUUGUUCUUUAGUGAAAAGAGUCAUCAAUCCAAGAGCCUUUUCAACUGCAGGAUCUUCAGGUUCUGAU: 0.108 ratio
ACUGCUGCCAAAUUUAUUGGUGCAGGUGCUGCAACAGUAGGAGUGGCUGGUUCUGGUGCUGGUAUUGGAACAGUCUUUGGCAGCCUUAUCAUUGGUUAUGCCAGAAACCCUUCGCUGAAG: 0.173 ratio
GAAAGUGGAAAGCCUUUCCAGUGUCCAAUAUGUGGUUUGGUUAUUAAAAGGAAGAGUUACUGGAAGCGGCACAUGGUGAUUCACACAGGUUUAAAAAGUCAUCAGUGUCCGCUCUGUCCA: 0.152 ratio
AGAAAUUUUUGUAUUUUUCUUUUACAGAUUUUAACUACGAUGAUUUUUUUCUAAAUUAAGUAGGUCAGGUUGUCAAAGUCAGUGCAAUAGUAAUACAACUUCCUUUUUAAGAAAACCCAA: 0.497 ratio
UUUCCUCACAAAUGUGAAGUCUGUGAUAAAGGUUUUCAUCGUCCUUCAGAGCUUAAAAAACAUAGUGAUAUUCAUAAGGGUAGGAAGAUUCACCAGUGUAGGCAUUGUGACUUUAAAACC: 0.686 ratio
UUAAAAUAGAUGAUUAUAACGGGGCAGAGAACUUUCUUUUCUCUGCAAGAAUGUUACAUAUUGUAUAGAUAAAUGAGUGACAUUUCAUACCAUGUAUAUAUAGAGAUGUUCUAUAAGUGU: 1.53 ratio
UGUGUCAUCCGAUGCUUAGUAAAGAAAAGAGCUCUUAUUGCAGGAGGUGGUGCUCCAGAAAUAGAGCUGGCCCUCAGACUGACAGAGUACUCCCGAACACUGAGUGGUAUGGAGUCCUAC: 0.145 ratio
UUGACUCUCCUCUUUACAGAGCUAGCAAAAGUAAUAGAGAGCUCUGCAAAGGGUUUCCCUAGUUUUAUCUCUGAUAUGCUGUCUAAGUGCAAAGUUCAGAAAGUGAUUCUUCAUUGUUUG: 7.79 ratio
CGGCUGCAGGGUCCUUGUGCUGCGCUGGUUCUUUGAAAGUCUCAGUGUUGAUAUUGAACUUAAAGAGCAGAGAUGGAGAUCAGUAGCAAGGCAGUCAUUUUUUUAAAGCAGUAAGUAACA: 0.285 ratio

Block 3
Target: RNA binding protein fox-1 homolog 2, RRM domain, GST-SBP tag (RBFOX2, Homo sapiens, UniProt O43251-10, residues 100-194)
Technique: RNA Bind-n-Seq
Molecule type: RNA
Matrix: in vitro
Tested at: 365 nM
Notes: natural RNA segment, single round, ends assumed
Reference: no-protein control
Reading: higher = stronger binding
Measurement: RBNS enrichment (R)
Constant ends, left off below: GGGAGUUCUACAGUCCGACGAUC … UGGAAUUCUCGGGUGCCAA
Target sequence (chain): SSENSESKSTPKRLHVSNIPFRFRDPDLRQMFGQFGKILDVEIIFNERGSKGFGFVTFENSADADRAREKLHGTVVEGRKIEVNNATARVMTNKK
GGCCAAGGCAAUGACACAUACAGAAAAGUCAUGGGCAACUUCUCCACCAAGGCUGAUUUAUGUUAUUGCUGGUCUUUUUAGGACAAUGGAUGCAGAAUGAGGUAGCAUUC: 2.38
UCUUUCAACUUACUUUUCACAGUAGGUUUCAGGGGAACAAAGCCAUGCCUGCUGCCUGCCUCUCUCCUAACAUGGUUCCAUCAAGUAGACACCCUUUGUAUUUGACCUCU: 3.65
AGUAGGUCAUUAAAUAGCUUAGUGAUUUAUCCUCAUAUAGGGCUUAUAAACCCUGUAUGUGUUUAUAUGUGCUUCACAGAGUUCGUGUCAGGCUCAAAGGAGAUAUGUAU: 0.308
GCCAGACCUUAACCAAAGAUGCUGAGAUACAGCAUUCUGUCCCCCCUGCCCUAGAAACUCCAUAAAUGCUGUCACAACCCUAUCAUCGCUGAUGCUUUCUGCAUGUCAGC: 0.482
AGCCCAUAGGUCUCAGAGAGUUAAUAGGAGUAUUUUUGGGCUAUUGCAUAAGGAGCCACUGCUGCCACCACUUUUGGAUUUUAUGGGAGGCUCCUUCAUCGAAUGCUAAA: 1.18
AAACGACCAAAAAACCAACAGUAACACCAGUGAAACCCCACACUGUCGGGCUUAUAAAAAUCUGUGCCAUCAUGGUGAUUUUAUCCAAGACUGCUCCACUUACCCCAGUG: 0.4
CCCUCGUGAUCCCAAACGACUCACUCCUUAAAUUCACACUUUGCCACUUAACUCCAGUGUGGAUGACAGAGCGAGACCCUGCCUCAAAAAAAAAAAAAAAAAAAGAAAGC: 0.469
GUGCUUGGAUCAGGAGAGGAUACCUCAGUGGUUAAGGUUCUGAUGGACGCACAUAUACAUAGAUGUACUCACUUAUCUAUGGUACAGAUGGGUGGGGAAGAGGUUGCUCU: 0.434
ACAUGGUAUUGUAUAUCAGUGGAGAAAUGUAUUAUUUCCAUGAUCAAAUGUAGUCUCUGUUAAGGUCAAGUUUUCUUUUAUAAGCCUUUAAUUCAUCCUCAGUGACUCUG: 0.563
GUGUUUUGUUUUACUGUACUAAGAACUUGUCCUUUCUCCUUGAAUCAAAGUAGGACAUGCAUCAUCCUCCUAAUUUUAAAUGUUGGCUCUGAUUUUAAAGUGGUGCAUUU: 0.648
CUAAAGGGAAUUGUAAUUUGGUUAUAAUUCAGGAUUUGGAAAUAAAUUUAUUAUUUGUAAAACAUGACUGCAUGUCUGACUUUUUCCUUCACCCUCUUAAAUCAUGUAAU: 7.42
UAGGAUGCAUAGCUGCCCCUAGGGUACGUAGCUGAACACUGACAAUGGCGUUCUUCUGAAAGAGCCACGUUUGGGUUUUAUUUCUUUGUCACAUGAUUUCUUUUCUGGAU: 0.319

Block 4
Target: Phosphate system positive regulatory protein PHO4, full length, GST-tagged (PHO4, Saccharomyces cerevisiae, UniProt P07270, residues 1-312)
Technique: competition protein-binding microarray
Molecule type: double-stranded DNA, one strand shown
Matrix: in vitro
Tested at: 2 µM
Notes: whole 60-bp probe, lowest competitor level
Together with: Cbf1 competitor, 0.05 µM
Reading: higher = stronger binding
Measurement: fluorescence intensity
Constant ends, left off below: … GTCTTGATTCGCTTGACGCTGCTG
Construct (chain): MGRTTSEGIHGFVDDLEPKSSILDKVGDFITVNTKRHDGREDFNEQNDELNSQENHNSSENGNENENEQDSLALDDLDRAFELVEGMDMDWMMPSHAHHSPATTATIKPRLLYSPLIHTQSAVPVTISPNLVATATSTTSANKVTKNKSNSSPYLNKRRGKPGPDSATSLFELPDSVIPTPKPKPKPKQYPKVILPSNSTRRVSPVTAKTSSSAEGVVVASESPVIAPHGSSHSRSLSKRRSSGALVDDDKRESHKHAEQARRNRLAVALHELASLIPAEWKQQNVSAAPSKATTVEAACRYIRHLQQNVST
AATGCCAGATTCGTTTTCGTGACAAACTTTAGCATA: 3720 a.u.
AGTTCAACAAAACCAAACATGACAATACCACTTATG: 5120 a.u.
AAAAGCGTCAAAAAACTCGTGTAAGAGGTCAAAAAG: 6000 a.u.
AAAGCGGTAATTTGTCACGTGTTTTCACATATCTAT: 16100 a.u.
TGAAATGGAATCGACCACGGGTCTTATTGAAAGCGG: 8090 a.u.
AGAATCACCCCATCTTACGTGGCAATCACCGATGAT: 4780 a.u.
CGGGAAAGTTAAAGTACCGTGATGGGGACCGCCCTT: 3850 a.u.
GTATCCGCACCGCAGTTCGTGACAAGTGCCTGCGTT: 5620 a.u.
AAAGCGGTAATTTTACACGTGTTTTCACATATCTAT: 17200 a.u.
ATGGTTCTAGCGAGTCACGTGCAAATTTTTAAAAAT: 14200 a.u.
ATATTATCTTGCGAGCATGTGCACTCAATTTCGGGG: 12700 a.u.
ATTTTTCTTTCGAGTCACGTCACCGCTACTAATGTT: 4790 a.u.
AATTTCTTCAGGACTTGCAAAAAGAATCTAACTGAT: 2830 a.u.
CAGGATTTTCCAGTTCGCGTGGTCGTCATAGTTGGG: 6490 a.u.
CGTCCTAGTGATTGTGAAGTGGGTGCCATGAGGAAG: 6650 a.u.
TACTTGGTAAGTACCCACGCAGCCAATAGTGTCTCG: 7400 a.u.
CATACCCAACCTTGAGCTGTGGGTGAAGATATTTGT: 3840 a.u.
AAAAGCAACTCGACCGTCGTGGGTACAATCCCCACC: 6800 a.u.
GAATGACTAAAGTCCCACGTTTTTCCCACTTTTAGT: 13500 a.u.
CCCGAACTTTTTTAGCACGTGAAAATGGAGAAGTCT: 15700 a.u.
ACTCCACCTTTGAAAACGGTGTGAATTCGCCCTTTC: 3660 a.u.
GTGATATATTTGATACTTTTGAGATATCCTTGAAAG: 3540 a.u.
CATACCCAACCTTGGTGAGTGGGTGAAGATATTTGT: 4550 a.u.
CTAACGAAGGTTTGGAAGGTGGGTGACAAGCCAAGT: 4190 a.u.
AACTGGTGGAGGTGGAACGTGTCCAGGCAGTGCAGG: 13600 a.u.

A few entries again (block 3):
CCCUCGUGAUCCCAAACGACUCACUCCUUAAAUUCACACUUUGCCACUUAACUCCAGUGUGGAUGACAGAGCGAGACCCUGCCUCAAAAAAAAAAAAAAAAAAAGAAAGC: 0.469
GCCAGACCUUAACCAAAGAUGCUGAGAUACAGCAUUCUGUCCCCCCUGCCCUAGAAACUCCAUAAAUGCUGUCACAACCCUAUCAUCGCUGAUGCUUUCUGCAUGUCAGC: 0.482
AAACGACCAAAAAACCAACAGUAACACCAGUGAAACCCCACACUGUCGGGCUUAUAAAAAUCUGUGCCAUCAUGGUGAUUUUAUCCAAGACUGCUCCACUUACCCCAGUG: 0.4
ACAUGGUAUUGUAUAUCAGUGGAGAAAUGUAUUAUUUCCAUGAUCAAAUGUAGUCUCUGUUAAGGUCAAGUUUUCUUUUAUAAGCCUUUAAUUCAUCCUCAGUGACUCUG: 0.563
GGCCAAGGCAAUGACACAUACAGAAAAGUCAUGGGCAACUUCUCCACCAAGGCUGAUUUAUGUUAUUGCUGGUCUUUUUAGGACAAUGGAUGCAGAAUGAGGUAGCAUUC: 2.38
UAGGAUGCAUAGCUGCCCCUAGGGUACGUAGCUGAACACUGACAAUGGCGUUCUUCUGAAAGAGCCACGUUUGGGUUUUAUUUCUUUGUCACAUGAUUUCUUUUCUGGAU: 0.319
AGUAGGUCAUUAAAUAGCUUAGUGAUUUAUCCUCAUAUAGGGCUUAUAAACCCUGUAUGUGUUUAUAUGUGCUUCACAGAGUUCGUGUCAGGCUCAAAGGAGAUAUGUAU: 0.308
